# Experimental data from different studies.
# Numbered parts are unrelated; each lists some results of a single study. Substitutions count along the parent as printed.

# Study 1
# Target: Ras GTPase-activating protein-binding protein 1, C-terminal RGG region (G3BP1, Homo sapiens, UniProt Q13283)
# Sequence of UniProt Q13283 (whole entry, looked up): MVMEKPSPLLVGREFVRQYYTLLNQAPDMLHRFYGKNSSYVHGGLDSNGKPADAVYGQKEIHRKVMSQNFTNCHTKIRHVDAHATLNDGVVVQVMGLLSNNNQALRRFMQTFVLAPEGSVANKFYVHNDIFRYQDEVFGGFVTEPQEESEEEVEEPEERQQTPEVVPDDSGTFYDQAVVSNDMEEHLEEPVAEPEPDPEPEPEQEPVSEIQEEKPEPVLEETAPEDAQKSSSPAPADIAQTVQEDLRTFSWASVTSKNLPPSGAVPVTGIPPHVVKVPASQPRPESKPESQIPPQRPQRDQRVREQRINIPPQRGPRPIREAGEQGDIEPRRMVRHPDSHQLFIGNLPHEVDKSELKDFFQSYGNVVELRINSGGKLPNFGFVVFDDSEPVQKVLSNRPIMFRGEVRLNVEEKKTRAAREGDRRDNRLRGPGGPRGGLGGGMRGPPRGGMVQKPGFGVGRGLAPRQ
# Technique: RNA Bind-n-Seq
# Molecule type: RNA
# Medium: in vitro
# Concentration: 1 µM
# Setting: whole 134-nt RNA, ends assumed
# With: 150 mM KCl
# Reference: input library
# Reading: higher = stronger binding
# All sequences stand within: GGGAGUUCUACAGUCCGACGAUC … UGGAAUUCUCGGGUGUCAAGG
Sequence,log2 enrichment
UAACUUUAGAGGAGGAUCUGAUGGAUAUGGCAGUGGACGUGGAUUUGGGGAUGGCUAUAAUGGGUAUGGAGGAGGACCUGGAGGUGGCGA,-1.14
UCCUGUGCUACACAUCGUAUGUACCGAAUCGGGUUUUUUGGGUUUUUUGGUUUUUUGGGAAAGUAUUAUGUUACGCCGUUCGGAUCUGCA,-0.629
CCUCACCACUCCUUUCUCUUUCAUUCAGUUCCGCUCAGUGGACGAGACUACCCAGGCUAUGGCCUUUGAUGGCAUCAUCUUCCAGGGCCA,-0.379
AGUCCUGUGCUACACAUCGUAUGUACCGAAUCGGGUUUUUUUGGGAAAAAGGGUGGGAAAGUAUUAUGUUACGCCGUUCGGAUCUGCACU,1.14
ACAGGAAGUAAAAACAAAUGGAAAUGCUUCGGAUAGUGGCAGGGGUGGGGGUUGCUAAGGAAAGGGUGGGAUGGGAGUGGGUAAAGAGUU,1.02
AAGUCCUGUGCUACACAUCGUAUGUACCGAAUCGGGAAAAAGGAAAAAGGAAAAAGGAAAGUAUUAUGUUACGCCGUUCGGAUCUGCACU,-2.02
UGGCCCUGGUGGCAUGCGGGGAGGAAGAGGUGGUCUCAUGGAUCGUGGUGGUCCCGGUGGAAUGUUCAGAGGUGGCCGUGGUGGAGACAG,1.68
CAAGUCCUGUGCUACACAUCGUAUGUACCGAAUCGGCCCGGGCCCGGGGCCCGGGGAAAGUAUUAUGUUACGCCGUUCGGAUCUGCACUU,-2.3
CUGUGCUACACAUCGUAUGUACCGAAUCGGGGUUUUUUUGGGGUUUUUGGGGAAAAAGGGGAAAGUAUUAUGUUACGCCGUUCGGAUCUG,-0.26
AAGUCCUGUGCUACACAUCGUAUGUACCGAAUCGGGGAGGGGAGGGGUUUUUGGGGAAAGUAUUAUGUUACGCCGUUCGGAUCUGCACUU,2.3
AGUCCUGUGCUACACAUCGUAUGUACCGAAUCGGGUUUGGGAAAAAGGGUUUUUGGGAAAGUAUUAUGUUACGCCGUUCGGAUCUGCACU,1.15
UCCUCAAGUCCUGUGCUACACAUCGUAUGUACCGAAUCGGUUUGGUGGAGGAAAGUAUUAUGUUACGCCGUUCGGAUCUGCACUUCCAGC,-1.15
ACCAUGCAGGUGGGCAUCUUUGGGAAGUGGGGCAAGAAAGGGAUAGGGAGGGGGGUAACACUUUGGGAACAGGUGGUCCCAGGUCGUUUC,-1
GUCCUGUGCUACACAUCGUAUGUACCGAAUCAAAUUUUUUUAAACCCCCAAACCCAAAAAAGUAUUAUGUUACGCCGUUCGGAUCUGCAC,-0.929

# Study 2
# Target: Centromere-binding protein 1, full length, His-tagged (CBF1, Saccharomyces cerevisiae, UniProt P17106, residues 1-351)
# Sequence of UniProt P17106 (whole entry, looked up): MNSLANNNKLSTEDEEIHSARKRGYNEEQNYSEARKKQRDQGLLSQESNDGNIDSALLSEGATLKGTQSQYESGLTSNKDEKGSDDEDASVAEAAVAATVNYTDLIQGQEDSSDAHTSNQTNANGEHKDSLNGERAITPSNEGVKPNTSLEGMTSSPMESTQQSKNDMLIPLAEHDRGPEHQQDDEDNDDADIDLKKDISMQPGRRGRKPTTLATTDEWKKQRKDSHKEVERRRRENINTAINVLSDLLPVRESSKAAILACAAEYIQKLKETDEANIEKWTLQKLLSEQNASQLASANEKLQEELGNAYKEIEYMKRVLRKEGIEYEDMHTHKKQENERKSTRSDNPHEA
# Technique: competition protein-binding microarray
# Molecule type: double-stranded DNA, one strand shown
# Medium: in vitro
# Concentration: 2 µM
# Setting: whole 60-bp probe, lowest competitor level
# With: Pho4 competitor, 0.05 µM
# Reading: higher = stronger binding
# All sequences stand within: … GTCTTGATTCGCTTGACGCTGCTG
Sequence,fluorescence intensity [a.u.]
CTGGCGTCATAATTTCACGTGTTTTAATAGCCATCC,1320
TGGCGCCGCCGCCACCACGCGGCAGCTCTGATTGGA,49.1
TGCAACAACAATGCCACTTAAAACTGGCTTAACTGT,72.4
GCAGGTTCATTTACCTATGTGACGGGAGCTTCCATC,58.9
ATGAACCATGCCCAACACGATGTCGTTATTCACTCT,84.8
CTGTGGACGAATCGGCACGCTTATTATTTAGGAGTG,108
TGCTCTCCCCCCTTCCTCGTGCTTTGCGACTGTTTA,146
AAATCATTATTTACGCGCGTGCAAATTTCGCCATCA,132
TGCGCAACAACTTGTACCGTGGGTGTATGTCTAGAA,63
AAAGCGGTAATTTTTCACGTGTGCTCACATATCTAT,697
CACGTAGAAGCTATCTTGATCAAGACTCTTTCTTTA,93.2
CAGTAAACAAACTCGCACCGGTCGCCGTTGTTCTTA,63.4
CTTTCCCGATCTTGATGCGTGGGTGTAGCACATTTG,73.3
AAAGTAACCCACTTTAACGTGACGGAACCTGAGCTG,144
AAAATTTGGCAACCTAAAGGAGATTTTGGACGAGTT,68.3
AAATTACTAAGTTGGCAAGTGGGTGACGCCGTATGA,60

# Study 3
# Target: RNA binding protein fox-1 homolog 2, RRM domain, GST-SBP tag (RBFOX2, Homo sapiens, UniProt O43251-10, residues 100-194)
# Technique: RNA Bind-n-Seq
# Molecule type: RNA
# Medium: in vitro
# Concentration: 365 nM
# Setting: natural RNA segment, single round, ends assumed
# Reference: no-protein control
# Reading: higher = stronger binding
# All sequences stand within: GGGAGUUCUACAGUCCGACGAUC … UGGAAUUCUCGGGUGCCAA
# Construct (chain): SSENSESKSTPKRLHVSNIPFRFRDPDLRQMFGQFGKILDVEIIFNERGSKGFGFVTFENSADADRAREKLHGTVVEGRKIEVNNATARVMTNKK
Sequence,RBNS enrichment (R)
CAGCCAGCUGGCUGGACACUCGAGAAAGACGGGGAAGUAAGCUACAGAAAGAUAGUCUUCAAAAACAGGUGUUUGAGAGUGAAUACUCUGUAGAAUUGUUAGUGGGGUGU,0.634
UAUUUAAAAUAUUUCUGAAGUUCAGUAAUUUGGAUGCCUUCAUUAGUAGAUGCUGUCCUAUAUACCUAUUAAAAAUGCCAAACACUGAUAACAUUGAACAUGUUCAUAUU,0.423
GAACCUGCCUUUCUGUGAAUGUGUCUGACUUAGAAUCACACUUUAUAAAUUAAUCCAGGUUGUGUUAAUACAGCAGUUUUCCUAGGCCCAAAAGGUUACUCUCAUAACAU,0.751
AUUCUGGUGGGGUGUGUUCCAACUGCCCCCAACUUUGUGGAUGUCUUCCUUGGAGGGGGGAGCCAUAUUUUAUUCUUUUAUUGUCAGUAUCUGUAUCUCUCUCUCUUUUU,0.625
AGCGCGCGCGGCUGAUGGACAUCGUCGAGGACCGACAUAGACCCGAUGCCAAGACCUUAGCCCCAAGGGGAGAUUUCCAAACUCUUAAAAAUGAAGGCUCCCAUGAGUCU,0.798
UGUUUUAGUGGGGAUAGUACCAUAUGUGAUAUAACCUAGAAGCACUUGUCUCUGCUCUUAUGAAACUUGCUUAUUCUUGAAAACCUUCUGCAUUUCCAUUUUUUCCUCUC,0.403
GCUAGCUACGAAUUUUUAAAGAAAUACUGUUUAAGUUAGAGAUGGUUUAAAGAAAAAUAGUUCACCAAAAUUUAGUAUUAUAUAGUCUGUAUUGUUUGGUUUCAAGUCUC,0.943
UUCUUCUUAAAGAGCUGCUUGGUUAUCCAAAAAUGAAAAUUCAAAAUAAACUCUGAAGAAAAGGAAACUGUCUUUGUGGUCAUUUGAAUUCAUUCUGAGUCAUUAUCUGU,0.339
GACUCAGAGGCCACACUGAUUUGUGCUGCAUCCAGACCCCCGUCUCCCUCCCCACCACCAUUCCUUGCUUCCUGCCCAGCCCGCUUCACUUCUCCCGGGACCAUCCUGAU,2.73
UAUGGAGAUUACCAGGCAGAUGAUACCGAAAUGCUUAAAGGGGCUGUGGCUGAGGCUGUAGCAUCUCUGCUGGAGGUGAGACACUCUGGGAACUGAUUUGACCUCGAAUG,0.445
GCCUAGAGCAAGAAACCUGCUCAGUUUUAUAAGCUCCCUUCCCAACCAAAAUGGCUUAUCGUCAUUCAAAAAACCUGUGACAUAGGCAGGCCUUGGAAUUUUGCUCCUUU,0.587
AGCUUCUGUUAACAUUAUAGAGACUCCUAGGAUGUGUGUUCAUGGCAUUAUAGCUUUUGAAGAAAGGCCAGUGAUCCAGCAAAGGGGGAAAAAUAUGCAUUUCACCCCAC,0.933

# Study 4
# Target: CCNA1, cyclin fold, Cln2 fusion (human)
# Technique: yeast growth competition, sequencing
# Medium: yeast
# Setting: weak parent motif
# Reference: not given
# Reading: higher = stronger binding
# Parent: SLBP docking peptide (human); ARYKRKLLINDFG; partner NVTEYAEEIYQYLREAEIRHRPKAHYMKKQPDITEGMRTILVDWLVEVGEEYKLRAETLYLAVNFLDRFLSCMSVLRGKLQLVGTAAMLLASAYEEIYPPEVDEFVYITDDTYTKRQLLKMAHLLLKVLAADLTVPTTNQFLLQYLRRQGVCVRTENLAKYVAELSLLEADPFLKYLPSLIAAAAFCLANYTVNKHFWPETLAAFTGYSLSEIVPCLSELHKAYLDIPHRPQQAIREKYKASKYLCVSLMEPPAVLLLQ
Change,normalised enrichment score
ARYKRKLLINDFW [G13W],-0.221
AHYKRKLLINDFG [R2H],0.399
ARYKRKLAINDFG [L8A],0.272
ARYKRKSLINDFG [L7S],0.273
ARYKRKLPINDFG [L8P],0.399
ARYGRKLLINDFG [K4G],0.225
ARYKRKLLIVDFG [N10V],0.184
ARYKRYLLINDFG [K6Y],0.122
ARYMRKLLINDFG [K4M],0.42
ARYKRKLLILDFG [N10L],0.713
ARYKRKLRINDFG [L8R],0.0865
ARYKRKLLINDRG [F12R],0.615
ARYKRKLYINDFG [L8Y],0.227
ARYKRKLLIEDFG [N10E],0.772
ARDKRKLLINDFG [Y3D],0.52
